Measurements pooled from the literature.
Protocols differ between the studies behind these lines. Values joined by “and” are separate records of one study, mostly repeats; a detail may differ. ± marks the error that the study gave.
GLP1R: Glucagon-like peptide 1 receptor (GLP1R, Homo sapiens, UniProt P43220)
MELK: Maternal embryonic leucine zipper kinase (MELK, Homo sapiens, UniProt Q14680)
Sequence of UniProt Q16774 (whole entry, looked up): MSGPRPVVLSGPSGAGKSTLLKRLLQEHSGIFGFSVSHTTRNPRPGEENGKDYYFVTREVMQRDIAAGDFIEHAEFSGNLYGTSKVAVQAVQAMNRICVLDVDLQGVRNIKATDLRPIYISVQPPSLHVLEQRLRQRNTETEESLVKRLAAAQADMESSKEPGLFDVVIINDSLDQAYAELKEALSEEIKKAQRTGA
Sequence of UniProt P07741 (whole entry, looked up): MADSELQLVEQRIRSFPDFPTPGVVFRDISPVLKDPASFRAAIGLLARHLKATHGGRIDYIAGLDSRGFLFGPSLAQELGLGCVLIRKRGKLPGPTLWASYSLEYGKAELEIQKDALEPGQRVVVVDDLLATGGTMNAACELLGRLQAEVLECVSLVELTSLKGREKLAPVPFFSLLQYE
Sequence of UniProt P11388 (whole entry, looked up): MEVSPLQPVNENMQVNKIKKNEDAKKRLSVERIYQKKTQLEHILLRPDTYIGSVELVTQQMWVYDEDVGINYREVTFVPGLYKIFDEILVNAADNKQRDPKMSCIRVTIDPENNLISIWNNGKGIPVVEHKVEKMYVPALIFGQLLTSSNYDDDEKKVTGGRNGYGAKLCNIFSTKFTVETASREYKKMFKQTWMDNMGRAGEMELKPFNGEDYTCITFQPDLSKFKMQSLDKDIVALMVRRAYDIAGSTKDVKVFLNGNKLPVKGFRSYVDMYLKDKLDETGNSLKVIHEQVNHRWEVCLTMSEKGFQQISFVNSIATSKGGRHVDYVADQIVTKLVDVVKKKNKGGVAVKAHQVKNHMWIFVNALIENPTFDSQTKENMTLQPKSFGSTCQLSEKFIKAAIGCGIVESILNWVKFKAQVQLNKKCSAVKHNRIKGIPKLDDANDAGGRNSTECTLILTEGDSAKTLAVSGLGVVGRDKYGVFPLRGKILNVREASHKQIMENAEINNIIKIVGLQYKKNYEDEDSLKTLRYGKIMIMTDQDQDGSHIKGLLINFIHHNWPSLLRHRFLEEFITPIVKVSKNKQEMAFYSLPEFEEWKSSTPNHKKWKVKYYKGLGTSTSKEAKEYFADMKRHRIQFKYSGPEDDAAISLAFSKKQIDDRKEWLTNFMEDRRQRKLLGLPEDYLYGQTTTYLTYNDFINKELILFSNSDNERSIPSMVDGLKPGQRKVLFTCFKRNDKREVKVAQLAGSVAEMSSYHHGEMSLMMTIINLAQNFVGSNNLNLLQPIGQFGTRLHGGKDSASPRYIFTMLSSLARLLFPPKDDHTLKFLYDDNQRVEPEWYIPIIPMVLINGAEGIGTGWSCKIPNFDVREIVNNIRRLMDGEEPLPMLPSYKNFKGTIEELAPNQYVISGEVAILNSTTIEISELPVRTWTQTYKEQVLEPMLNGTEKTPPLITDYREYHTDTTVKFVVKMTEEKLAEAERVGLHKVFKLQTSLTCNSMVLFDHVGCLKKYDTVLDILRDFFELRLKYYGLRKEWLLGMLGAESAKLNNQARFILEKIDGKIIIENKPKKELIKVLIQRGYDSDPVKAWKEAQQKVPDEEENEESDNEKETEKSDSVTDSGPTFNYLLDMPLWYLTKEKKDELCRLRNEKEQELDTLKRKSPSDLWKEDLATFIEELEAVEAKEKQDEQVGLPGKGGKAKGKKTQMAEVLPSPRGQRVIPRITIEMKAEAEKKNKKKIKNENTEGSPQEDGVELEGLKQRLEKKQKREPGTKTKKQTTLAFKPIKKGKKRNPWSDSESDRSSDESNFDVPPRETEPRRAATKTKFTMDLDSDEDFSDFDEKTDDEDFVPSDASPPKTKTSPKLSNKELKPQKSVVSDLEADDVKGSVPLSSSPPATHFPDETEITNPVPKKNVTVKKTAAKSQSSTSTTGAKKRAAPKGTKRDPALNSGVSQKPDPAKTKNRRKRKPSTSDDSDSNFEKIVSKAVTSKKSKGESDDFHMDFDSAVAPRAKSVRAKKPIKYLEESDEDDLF
Sequence of UniProt P51575 (whole entry, unmodified, looked up): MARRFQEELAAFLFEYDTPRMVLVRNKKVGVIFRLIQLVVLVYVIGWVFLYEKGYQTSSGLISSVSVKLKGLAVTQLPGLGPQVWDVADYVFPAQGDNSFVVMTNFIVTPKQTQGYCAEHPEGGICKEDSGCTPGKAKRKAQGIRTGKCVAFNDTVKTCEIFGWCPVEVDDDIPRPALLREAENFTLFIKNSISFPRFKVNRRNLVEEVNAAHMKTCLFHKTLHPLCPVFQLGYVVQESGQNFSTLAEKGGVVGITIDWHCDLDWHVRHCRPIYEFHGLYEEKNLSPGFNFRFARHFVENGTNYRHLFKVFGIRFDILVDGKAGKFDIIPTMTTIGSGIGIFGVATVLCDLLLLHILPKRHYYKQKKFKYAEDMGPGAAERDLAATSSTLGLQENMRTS
Sequence of UniProt P23204 (whole entry, unmodified, looked up): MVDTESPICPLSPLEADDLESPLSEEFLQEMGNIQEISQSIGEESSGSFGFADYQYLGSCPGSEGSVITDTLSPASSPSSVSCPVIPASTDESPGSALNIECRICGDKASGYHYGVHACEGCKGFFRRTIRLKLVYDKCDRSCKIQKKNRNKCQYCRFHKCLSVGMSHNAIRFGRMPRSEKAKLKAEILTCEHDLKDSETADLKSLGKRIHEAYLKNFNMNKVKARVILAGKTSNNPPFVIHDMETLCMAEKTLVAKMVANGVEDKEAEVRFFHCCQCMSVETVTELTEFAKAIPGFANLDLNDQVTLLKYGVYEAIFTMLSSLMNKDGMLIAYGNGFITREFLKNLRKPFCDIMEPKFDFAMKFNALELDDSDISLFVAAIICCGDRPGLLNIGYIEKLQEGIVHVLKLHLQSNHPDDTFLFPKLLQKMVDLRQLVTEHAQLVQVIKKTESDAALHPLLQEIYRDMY
Sequence of UniProt Q14680 (whole entry, looked up): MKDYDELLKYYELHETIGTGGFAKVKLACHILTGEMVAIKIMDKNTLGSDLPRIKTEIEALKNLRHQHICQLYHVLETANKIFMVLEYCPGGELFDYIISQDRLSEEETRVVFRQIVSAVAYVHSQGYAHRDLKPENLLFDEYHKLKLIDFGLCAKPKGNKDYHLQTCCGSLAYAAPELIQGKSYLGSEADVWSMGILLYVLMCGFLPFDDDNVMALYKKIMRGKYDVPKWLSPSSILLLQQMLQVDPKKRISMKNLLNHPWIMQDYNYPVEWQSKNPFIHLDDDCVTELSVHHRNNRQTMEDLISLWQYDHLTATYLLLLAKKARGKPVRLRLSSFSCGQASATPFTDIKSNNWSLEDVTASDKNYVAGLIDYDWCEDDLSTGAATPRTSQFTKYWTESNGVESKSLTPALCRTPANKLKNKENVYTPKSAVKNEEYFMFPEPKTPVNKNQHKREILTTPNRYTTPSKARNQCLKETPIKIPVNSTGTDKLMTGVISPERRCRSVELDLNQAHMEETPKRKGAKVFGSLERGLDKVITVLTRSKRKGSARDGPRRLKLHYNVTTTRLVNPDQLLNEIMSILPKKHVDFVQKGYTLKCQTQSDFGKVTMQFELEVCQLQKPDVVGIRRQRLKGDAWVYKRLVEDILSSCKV
Sequence of UniProt P34995 (whole entry, unmodified, looked up): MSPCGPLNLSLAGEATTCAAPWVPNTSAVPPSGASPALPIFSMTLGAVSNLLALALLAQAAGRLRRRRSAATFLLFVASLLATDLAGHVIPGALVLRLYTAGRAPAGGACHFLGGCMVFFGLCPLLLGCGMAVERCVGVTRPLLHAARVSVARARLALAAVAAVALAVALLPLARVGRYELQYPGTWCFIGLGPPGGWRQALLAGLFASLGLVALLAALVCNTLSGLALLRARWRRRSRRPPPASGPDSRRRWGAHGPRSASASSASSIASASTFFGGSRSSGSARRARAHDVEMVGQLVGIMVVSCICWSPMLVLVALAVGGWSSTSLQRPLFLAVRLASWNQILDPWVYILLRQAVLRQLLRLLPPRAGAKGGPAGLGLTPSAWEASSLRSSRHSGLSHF
Sequence of UniProt P42338 (whole entry, looked up): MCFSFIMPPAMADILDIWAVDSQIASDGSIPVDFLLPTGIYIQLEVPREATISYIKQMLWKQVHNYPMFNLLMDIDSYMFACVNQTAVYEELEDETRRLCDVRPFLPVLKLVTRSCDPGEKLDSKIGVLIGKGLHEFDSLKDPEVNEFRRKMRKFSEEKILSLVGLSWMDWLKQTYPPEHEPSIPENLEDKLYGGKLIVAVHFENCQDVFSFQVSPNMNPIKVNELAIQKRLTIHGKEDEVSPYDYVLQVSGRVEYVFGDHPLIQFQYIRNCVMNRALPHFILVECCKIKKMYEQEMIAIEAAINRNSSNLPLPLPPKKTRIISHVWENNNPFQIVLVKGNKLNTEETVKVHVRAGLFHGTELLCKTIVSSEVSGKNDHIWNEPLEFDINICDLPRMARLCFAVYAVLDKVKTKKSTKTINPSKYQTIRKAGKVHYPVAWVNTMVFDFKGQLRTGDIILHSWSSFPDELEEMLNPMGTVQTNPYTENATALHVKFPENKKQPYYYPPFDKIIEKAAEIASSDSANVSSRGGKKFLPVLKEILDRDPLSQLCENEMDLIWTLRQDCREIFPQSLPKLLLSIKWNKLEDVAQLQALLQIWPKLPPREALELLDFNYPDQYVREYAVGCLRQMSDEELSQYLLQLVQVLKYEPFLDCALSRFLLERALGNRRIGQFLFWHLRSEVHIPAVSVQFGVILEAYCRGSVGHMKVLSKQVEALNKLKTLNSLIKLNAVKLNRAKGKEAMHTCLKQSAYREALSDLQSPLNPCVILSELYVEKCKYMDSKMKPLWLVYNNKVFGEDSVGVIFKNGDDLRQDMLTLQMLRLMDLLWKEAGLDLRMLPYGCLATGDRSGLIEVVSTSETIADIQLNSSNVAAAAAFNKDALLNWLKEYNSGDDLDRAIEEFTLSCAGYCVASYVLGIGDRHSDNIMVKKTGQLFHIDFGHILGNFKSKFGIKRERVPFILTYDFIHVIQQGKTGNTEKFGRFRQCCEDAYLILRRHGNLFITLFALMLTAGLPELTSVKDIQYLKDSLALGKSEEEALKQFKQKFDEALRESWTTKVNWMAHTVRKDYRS

| SMILES | target | assay | test system | setting | how to read | endpoint | value |
| --- | --- | --- | --- | --- | --- | --- | --- |
| O=C(O)CCCc1cc2cc(Cl)ccc2n1S(=O)(=O)c1ccc2ncsc2c1 | Peroxisome proliferator-activated receptor alpha (Ppara, Mus musculus, UniProt P23204) | receptor activation, agonist |  | species mouse | reference: internal control agonist | Emax | 39% |
| Nc1nc2c(ncn2[C@@H]2O[C@H](COP(=O)(O)O)[C@@H](O)[C@H]2O)c(=O)[nH]1 | GUK1 (Homo sapiens, UniProt Q16774) | enzyme activity, NADH-coupled |  | 31.25 µM, added: KCl 50 mM |  | reaction velocity | 0.0916 µM/s and 0.09 µM/s and 0.0783 µM/s |
| CC1CCCN(C(=O)c2cc3ncccn3n2)C1 (centres unmarked) | Transcription intermediary factor 1-alpha, PHD-bromodomain (TRIM24, Homo sapiens, UniProt O15164) | binding, affinity selection mass spectrometry |  |  | reference: other proteins in batch | fold enrichment | 0.954 |
| Cc1ncsc1-c1ccc([C@H](C)NC(=O)[C@@H]2C[C@@H](O)CN2C(=O)[C@@H](NC(=O)CCCCCC(=O)N2CCC3(CC2)CCN(c2cncc(Nc4ncc(Cl)c(-c5cccc(-c6ccccc6)c5)n4)c2)C3=O)C(C)(C)C)cc1 | Phosphatidylinositol 5-phosphate 4-kinase type-2 gamma (PIP4K2C, Homo sapiens, UniProt Q8TBX8) | degrader, immunoblot | HAP1 | 6 h |  | Dmax | 59% |
| CN1CCN(c2cc(-c3ccncc3)c(-c3ccc4ccccc4c3)nn2)CC1 | Extracellular calcium-sensing receptor (CASR, Homo sapiens, UniProt P41180) | agonist, FLIPR |  | 12.5 µM |  | activation | 1.8% |
| CN(C)C(=O)C(CCN1CCC(O)(c2ccc(Cl)cc2)CC1)(c1ccccc1)c1ccccc1 | Calcium-activated potassium channel subunit alpha-1, with LRRC26 γ1 subunit (KCNMA1, Homo sapiens, UniProt Q12791) | BK current, inhibitor, inside-out patch clamp | excised membrane patch | 1 µM, γ1 subunit coexpressed, added: nominally 0 Ca2+ cytosolic | reference: without loperamide | normalized Gmax | 0.623 |
| O=c1nc(SCc2cc(F)cc(C(F)(F)F)c2)nc(SCc2ccc3sccc3c2)[nH]1 | DNA topoisomerase 2-alpha (TOP2A, Homo sapiens, UniProt P11388) | ATPase activity |  | 7.8 µM, added: ATP 0.25 mM |  | ATP hydrolysis rate | 1.15 µM/min and 1.23 µM/min |
| O=C(COP(=O)(O)O)[C@@H](O)[C@H](O)[C@H](O)COP(=O)(O)O | Adenine phosphoribosyltransferase (Homo sapiens, UniProt P07741) | thermal proteome profiling, refers to: APRT | HepG2 cell lysate | concentration not given, 57 over 37 °C | reference: compound over control | thermal stability ratio | 0.412 and 0.7 and 0.444 |
| CC[C@H](C)[C@H](NC(=O)[C@H](Cc1ccccc1)NC(=O)[C@H](CCC(=O)O)NC(=O)[C@H](CCCNC(=N)N)NC(=O)[C@H](C)NC(=O)[C@H](C)NC(=O)[C@H](CCC(N)=O)NC(=O)[C@H](CCC(=O)O)NC(=O)[C@H](CCC(=O)O)NC(=O)[C@H](CC(C)C)NC(=O)[C@H](Cc1ccc(O)cc1)NC(=O)[C@H](CO)NC(=O)[C@H](CO)NC(=O)[C@H](CCCCNc1c(NCCCCCN(O)C(=O)CCC(=O)NCCCCCN(O)C(=O)CCC(=O)NCCCCCN(O)C(C)=O)c(=O)c1=O)NC(=O)[C@H](CC(=O)O)NC(=O)[C@H](CO)NC(=O)[C@@H](NC(=O)[C@H](Cc1ccccc1)NC(=O)[C@@H](NC(=O)CNC(=O)[C@H](CCC(=O)O)NC(=O)[C@H](C)NC(=O)CCc1cnc[nH]1)[C@@H](C)O)[C@@H](C)O)C(=O)N[C@@H](C)C(=O)N[C@@H](Cc1c[nH]c2ccccc12)C(=O)N[C@@H](CC(C)C)C(=O)N[C@H](C(=O)N[C@@H](CCCCNc1c(NCCCCCN(O)C(=O)CCC(=O)NCCCCCN(O)C(=O)CCC(=O)NCCCCCN(O)C(C)=O)c(=O)c1=O)C(=O)NCC(=O)N[C@@H](CCCNC(=N)N)C(=O)N[C@@H](CCCCNC(=O)COCCOCCNC(=O)COCCOCCNC(=O)CC[C@H](NC(=O)CCCCCCCCCCCCCCCCC(=O)O)C(=O)O)C(=O)O)C(C)C | GLP1R | agonist, CRE luciferase reporter | BHK cells | metal-free DFO conjugate, added: 1% HSA | reference: parent peptide | fold potency loss | 35.7 |
| CCCCC[C@H](O)/C=C/[C@H]1[C@H](O)CC(=O)[C@@H]1C/C=C\CCCC(=O)O | Prostaglandin E2 receptor EP1 subtype (PTGER1, Homo sapiens, UniProt P34995, S341A) | IP1 accumulation, agonist | AD293 | 1 h, EP1 S341A mutant |  | Emax | 91.4 ± 6.89% |
| C=CC(=O)N1CCC(COCC(=O)N2CCN(c3nc(-c4cnc(N)nc4C(F)F)nc(N4CCOC[C@@H]4C)n3)CC2)CC1 | MELK | KINOMEscan |  | 1 µM |  | remaining binding | 100% |
| CC[C@H](C)[C@H](NC(=O)[C@H](Cc1ccccc1)NC(=O)[C@H](CCC(=O)O)NC(=O)[C@H](CCCNC(=N)N)NC(=O)[C@H](C)NC(=O)[C@H](C)NC(=O)[C@H](CCC(N)=O)NC(=O)[C@H](CCCCNc1c(NCCCCCN(O)C(=O)CCC(=O)NCCCCCN(O)C(=O)CCC(=O)NCCCCCN(O)C(C)=O)c(=O)c1=O)NC(=O)[C@H](CCC(=O)O)NC(=O)[C@H](CC(C)C)NC(=O)[C@H](Cc1ccc(O)cc1)NC(=O)[C@H](CO)NC(=O)[C@H](CO)NC(=O)[C@H](CCCCNc1c(NCCCCCN(O)C(=O)CCC(=O)NCCCCCN(O)C(=O)CCC(=O)NCCCCCN(O)C(C)=O)c(=O)c1=O)NC(=O)[C@H](CC(=O)O)NC(=O)[C@H](CO)NC(=O)[C@@H](NC(=O)[C@H](Cc1ccccc1)NC(=O)[C@@H](NC(=O)CNC(=O)[C@H](CCC(=O)O)NC(=O)[C@H](C)NC(=O)CCc1cnc[nH]1)[C@@H](C)O)[C@@H](C)O)C(=O)N[C@@H](C)C(=O)N[C@@H](Cc1c[nH]c2ccccc12)C(=O)N[C@@H](CC(C)C)C(=O)N[C@H](C(=O)N[C@@H](CCCNC(=N)N)C(=O)NCC(=O)N[C@@H](CCCNC(=N)N)C(=O)N[C@@H](CCCCNC(=O)COCCOCCNC(=O)COCCOCCNC(=O)CC[C@H](NC(=O)CCCCCCCCCCCCCCCCC(=O)O)C(=O)O)C(=O)O)C(C)C | GLP1R | agonist, CRE luciferase reporter | BHK cells | metal-free DFO conjugate, added: 1% HSA | reference: parent peptide | fold potency loss | 14.3 |
| C#CCOc1ccccc1N1CCN(C(=O)c2cccc(S(=O)(=O)n3cnc(C4CC4)n3)c2)CC1 | Glutathione S-transferase P, Y8 variant (GSTP1, Homo sapiens, UniProt P09211) | label-free LC-MS/MS chemoproteomics | COLO 205 | 100 µM, 4 h, 37 °C |  | spectral count | 45 |
| Cc1cc(Nc2cc(N3CCN(C)CC3)nc(Sc3ccc(NC(=O)C4CC4)cc3)n2)[nH]n1 | MELK | kinase activity, KinaseProfiler |  | 0.03 µM, species human | reference: control | remaining activity | 92% |
| O=C[C@H](O)[C@@H](O)[C@H](O[C@@H]1O[C@H](CO)[C@@H](O)[C@H](O)[C@H]1O)[C@H](O)CO | uncharacterized protein (Pelagibacter ubique, UniProt Q4FMK2) | isothermal titration calorimetry | Candidatus Pelagibacter ubique | concentration not given |  | binding | no binding |
| CC[C@@H]1[C@H](F)C(=O)N[C@@H]1COc1nccc2cc(C(N)=O)c(OC)cc12 | Phosphatidylinositol 4,5-bisphosphate 3-kinase catalytic subunit beta isoform (PIK3CB, Homo sapiens, UniProt P42338) | ATP-site probe binding, ActivX profiling | THP-1 cell lysate | 0.2 mM |  | inhibition | -29.5% |
| Nc1c(N=Nc2ccc(S(=O)(=O)CCOS(=O)(=O)[O-])cc2)c(S(=O)(=O)[O-])cc2cc(S(=O)(=O)[O-])c(N=Nc3ccc(S(=O)(=O)CCOS(=O)(=O)[O-])cc3)c(O)c12.[Na+].[Na+].[Na+].[Na+] | alternative ancestral dye-decolorizing peroxidase | peroxidase activity, substrate, steady-state kinetics |  | 25 °C, pH 3 ABTS, 4 others |  | kcat | 0.2 s⁻¹ |
| CCN1CCC[C@H]1CNC(=O)c1c(O)c(Cl)cc(Cl)c1OC | Adhesion G protein-coupled receptor F5 (ADGRF5, Homo sapiens, UniProt Q8IZF2) | β-arrestin recruitment, TANGO luminescence, refers to: GPR116 |  | concentration not given | reference: basal luminescence | log2 fold change | 0.084 |
| O=C(O)c1ccc(Nc2ncc3c(n2)-c2ccc(Cl)cc2C(c2c(F)cccc2F)=NC3)cc1 | human JNK1α1(h) | kinase activity |  | 1 µM |  | remaining activity | 122% |
| CCCCN1/C(=C/C=C(Br)/C=C/C2=[N+](CCCC)c3ccc(Br)cc3C2(C)C)C(C)(C)c2cc(Br)ccc21.[I-] | Histone-arginine methyltransferase CARM1 (CARM1, Homo sapiens, UniProt Q86X55) | inhibitor, filter binding |  | added: histone H3.3 substrate |  | Hill coefficient | 1.48 |
| CN(CCOc1ccc(CC2SC(=O)NC2=O)cc1)c1ccccn1 (centres unmarked) | Peroxisome proliferator-activated receptor alpha (Ppara, Mus musculus, UniProt P23204, F272I) | far-UV circular dichroism |  | concentration not given |  | secondary structure change | no effect |
| CC[C@H](C)[C@H](NC(=O)[C@H](Cc1ccccc1)NC(=O)[C@H](CCC(=O)O)NC(=O)[C@H](CCCNC(=N)N)NC(=O)[C@H](C)NC(=O)[C@H](C)NC(=O)[C@H](CCC(N)=O)NC(=O)[C@H](CCC(=O)O)NC(=O)[C@H](CCC(=O)O)NC(=O)[C@H](CC(C)C)NC(=O)[C@H](Cc1ccc(O)cc1)NC(=O)[C@H](CO)NC(=O)[C@H](CO)NC(=O)[C@H](CCCCNc1c(NCCCCCN(O)C(=O)CCC(=O)NCCCCCN(O)C(=O)CCC(=O)NCCCCCN(O)C(C)=O)c(=O)c1=O)NC(=O)[C@H](CC(=O)O)NC(=O)[C@H](CO)NC(=O)[C@@H](NC(=O)[C@H](Cc1ccccc1)NC(=O)[C@@H](NC(=O)CNC(=O)[C@H](CCC(=O)O)NC(=O)[C@H](C)NC(=O)CCc1cnc[nH]1)[C@@H](C)O)[C@@H](C)O)C(=O)N[C@@H](C)C(=O)N[C@@H](Cc1c[nH]c2ccccc12)C(=O)N[C@@H](CC(C)C)C(=O)N[C@H](C(=O)N[C@@H](CCCNC(=N)N)C(=O)NCC(=O)N[C@@H](CCCNC(=N)N)C(=O)N[C@@H](CCCCNC(=O)COCCOCCNC(=O)COCCOCCNC(=O)CC[C@H](NC(=O)CCCCCCCCCCCCCCCCC(=O)O)C(=O)O)C(=O)NCC(=O)NCC(=O)N[C@@H](CO)C(=O)N[C@@H](CCCCNc1c(NCCCCCN(O)C(=O)CCC(=O)NCCCCCN(O)C(=O)CCC(=O)NCCCCCN(O)C(C)=O)c(=O)c1=O)C(=O)O)C(C)C | GLP1R | agonist, CRE luciferase reporter | BHK cells | Zr-loaded DFO conjugate, added: 0% HSA | reference: parent peptide | fold potency loss | 28.9 |
| COCC(=O)NC1C(O)CC(OC2C(O)C(CO)OC(Oc3ccc([N+](=O)[O-])cc3)C2O)(C(=O)O)OC1C(O)C(O)CO (centres unmarked) | Sialidase-2 (Homo sapiens, UniProt Q9Y3R4) | substrate |  | 0.3 mM, 30 min, pH 5.0, 37 °C |  | sialic acid release | 6% |
| CC(C)C(=O)Nc1n[nH]c2cc(-c3cccc(NS(=O)(=O)C4CC4)c3)ccc12 | Phosphatidylinositol 4-phosphate 5-kinase type-1 gamma (PIP5K1C, Homo sapiens, UniProt O60331) | ADP-Glo |  | 41.2 nM, added: 10 µM ATP |  | ADP produced | 2.76 µM |
| Cc1cc(-c2ccnc3[nH]cc(F)c23)cc(F)c1[C@@]1(O)[C@H](C)CN(C(=O)CN)C[C@@H]1C | RAC-alpha serine/threonine-protein kinase (AKT1, Homo sapiens, UniProt P31749) | ATP/ADP probe binding, KiNativ | HEK293T lysate | 10 µM, ATP loop peptide |  | probe labelling inhibition | -43% |
| Nc1ncnc2c1ncn2[C@@H]1O[C@H](COP(=O)(O)CP(=O)(O)OP(=O)(O)O)[C@@H](O)[C@H]1O | P2X purinoceptor 1 (P2RX1, Homo sapiens, UniProt P51575, L218T) | saturation binding | HEK293 | 130 nM |  | specific binding | 5510 CCPM and 5120 CCPM |

Repeated from above:
| SMILES | target | assay | test system | setting | how to read | endpoint | value |
| --- | --- | --- | --- | --- | --- | --- | --- |
| CC(C)C(=O)Nc1n[nH]c2cc(-c3cccc(NS(=O)(=O)C4CC4)c3)ccc12 | Phosphatidylinositol 4-phosphate 5-kinase type-1 gamma (PIP5K1C, Homo sapiens, UniProt O60331) | ADP-Glo |  | 41.2 nM, added: 10 µM ATP |  | ADP produced | 2.76 µM |
| Cc1cc(-c2ccnc3[nH]cc(F)c23)cc(F)c1[C@@]1(O)[C@H](C)CN(C(=O)CN)C[C@@H]1C | RAC-alpha serine/threonine-protein kinase (AKT1, Homo sapiens, UniProt P31749) | ATP/ADP probe binding, KiNativ | HEK293T lysate | 10 µM, ATP loop peptide |  | probe labelling inhibition | -43% |
| Nc1ncnc2c1ncn2[C@@H]1O[C@H](COP(=O)(O)CP(=O)(O)OP(=O)(O)O)[C@@H](O)[C@H]1O | P2X purinoceptor 1 (P2RX1, Homo sapiens, UniProt P51575, L218T) | saturation binding | HEK293 | 130 nM |  | specific binding | 5510 CCPM and 5120 CCPM |
